# Assay results collected from several papers.
# Each line is one published result; not all experiments were run side by side. Numbers after ± are the reported error.
# Organism: Mycobacterium tuberculosis
Compound,observed,technique,cell line,strain,time,setting,IC50
Nc1c(C(=O)N2CCOCC2)sc2ncccc12,growth inhibition,,,H37Rv LepB under-expressing,,,> 100000 nM
CC[C@@H](CO)NCCN[C@@H](CC)CO,bacterial growth,,,H37Rv,,"Wayne model, oxygen-limited",2140 ± 460 nM
COc1ccc(-c2cc(C(F)(F)F)c3c(N)c(C(=O)NC4CC4)sc3n2)cc1,growth inhibition,,,H37Rv LepB under-expressing,,,> 100000 nM
COC(=O)C(=O)[C@H](C[C@@H]1CCNC1=O)NC(=O)[C@H](CCCCN)NC(=O)[C@H](Cc1ccccc1)NC(=O)OCc1ccccc1,bacterial growth,,THP-1 macrophages,Mtb-lux,48 h,,10800 ± 200 nM
NNC(=O)c1ccncc1,,,THP-1,H37Rv,,intracellular,140 nM
Cn1c(SCc2ccc(Cl)cc2)nnc1-c1cncc(C#Cc2ccccc2)c1,bacterial growth,MABA,,Erdman wild type,,,2200 ± 364 nM
COc1ccc(-c2cc(C(F)(F)F)c3c(N)c(C(=O)N4CCCCC4)sc3n2)cc1,growth inhibition,,,H37Rv LepB under-expressing,,,11000 ± 9000 nM
CCCCCCC#Cc1cncc(-c2nnc(SCc3ccc(Cl)cc3)n2C)c1,bacterial growth,,,Erdman wild type,,,5300 nM
[H]/N=C(/N)N[C@H]1[C@H](O)[C@@H](O)[C@H](O[C@@H]2O[C@@H](C)[C@](O)(C=O)[C@H]2O[C@@H]2O[C@@H](CO)[C@H](O)[C@@H](O)[C@@H]2NC)[C@@H](N/C(N)=N\[H])[C@@H]1O,bacterial growth,,,H37Rv,,"Wayne model, oxygen-limited",80 ± 20 nM
CCCCCCC#Cc1cncc(-c2nnc(SCc3ccc([N+](=O)[O-])o3)n2C)c1,bacterial growth,,,Erdman wild type,,,550 nM
CO[C@H]1/C=C/O[C@@]2(C)Oc3c(C)c(O)c4c(O)c(c(/C=N/N5CCN(C)CC5)c(O)c4c3C2=O)NC(=O)/C(C)=C\C=C\[C@H](C)[C@H](O)[C@@H](C)[C@@H](O)[C@@H](C)[C@H](OC(C)=O)[C@@H]1C,,,,H37Rv,,anaerobic conditions,2 nM
Nc1c(C(=O)N2CCOCC2)sc2nc(-c3cccnc3)ccc12,growth inhibition,,,H37Rv LepB under-expressing,,,> 100000 nM
CCCCCCC#Cc1cncc(-c2nnc(SCc3ccc(Cl)cc3)n2C2CC2)c1,bacterial growth,MABA,,Erdman wild type,,,5100 ± 724 nM

# Some of these lines once more:
Compound,observed,technique,cell line,strain,time,setting,IC50
Cn1c(SCc2ccc(Cl)cc2)nnc1-c1cncc(C#Cc2ccccc2)c1,bacterial growth,MABA,,Erdman wild type,,,2200 ± 364 nM
COc1ccc(-c2cc(C(F)(F)F)c3c(N)c(C(=O)N4CCCCC4)sc3n2)cc1,growth inhibition,,,H37Rv LepB under-expressing,,,11000 ± 9000 nM
